Experimental data pooled from the literature.
Lines come from different studies, so protocols differ.
Target: Phosphorylase b kinase gamma catalytic chain, liver/testis isoform (PHKG2, Homo sapiens, UniProt P15735)

SMILES | assay | conditions | how to read | measurement | result
CCn1cc(C(=O)O)c(=O)c2c(N)c(F)c(NC3CCCCC3)cc21 | kinase activity | 0.1 µM, with: ATP at Km | – | inhibition | 1.7%
C=CC(=O)N1Cc2nc(-c3cc(-c4cc(Cl)cnc4Cl)c(F)cc3F)n(-c3ccncn3)c2C1 | cell-free assay, inhibitor | 1 µM | – | inhibition | 2%
Nc1ncc(-c2cc(-c3cnn(CC(F)(F)F)c3)ncc2F)nc1C(=O)NC1CNCC(F)C1 (stereo not drawn) | enzyme activity | 1 µM | reference: DMSO control | remaining activity | 99%
Cc1ccc(-c2c(/C=C(\C#N)C(=O)NC(C)C)n(CCCO)c3ncnc(N)c23)cc1 | cell-free assay, competition with immobilised ligand | 1 µM | – | remaining binding | 100%
CN1CC[C@@H](COc2cnc(C#N)cc2-c2ccn3nc(NC(=O)C4CC4)cc3c2)C1 | inhibitor, KinaseProfiler panel | 1 µM | – | inhibition | 9%
COc1c(Cl)cccc1Nc1c(-c2ccncc2C#C[C@@]2(C)CCCN2C(=O)/C=C/CN(C)C)[nH]c2c1C(=O)NCC2 | cell-free assay, competition with immobilised ligand | 3 µM | – | remaining binding | 91%
C=CC(=O)Nc1cccc(-c2cnc3[nH]cc(C(=O)NC(C)(C)C)c3n2)c1 | enzyme activity, inhibitor | 0.1 µM | – | inhibition | 7%
O=C(Cc1ccc(OCc2ccccc2)cc1)NC1(C(=O)O)CCN(C(=O)c2ccc(-c3cccc(Cl)c3)cc2)CC1 | enzyme activity, inhibitor | 10 µM | – | activity vs control | 110%
Cc1cccc(O[C@H]2CCC[C@@H](C(C)CNCc3ccncc3)C2)c1 (relative stereo) | enzyme activity, inhibitor | 1 µM | – | inhibition | -1%
CCN1CCN(Cc2ccc(C(=O)Nc3ccc(C)c(NCc4cnc5[nH]ccc5c4OC)c3)cc2C(F)(F)F)CC1 | binding, competition with immobilised ligand | 1 µM | – | remaining binding | 88%
C=CC(=O)N1CCCC(n2c(=O)c3ncccc3n(Cc3ccc(Oc4ccccc4)cc3)c2=O)C1 (stereo not drawn) | cell-free assay, competition with immobilised ligand | 1 µM | – | remaining binding | 91%
COc1cc(Nc2nccc(-c3cnn4nc(OC)ccc34)n2)cc(C(F)(F)F)c1 | binding, competition with immobilised ligand | 1 µM | – | remaining binding | 100%
CNC1C[S+]2CC[S+]3CC[S+](C1)[Ru-4]321([N]=C=S)[n]2c3ccc(OC)cc3c3c4c(c5cc(F)c[n+]1c5c32)C(=O)NC4=O (stereo not drawn) | KinomeScan | 0.1 µM | reference: untreated | remaining binding | 56%
C=CC(=O)N1CCc2ccc(-n3c(=O)ccc4cnc5ccc(-c6cnn(C)c6)cc5c43)cc21 | KINOMEscan | 1 µM | reference: DMSO control | remaining binding | 98%
NC(=O)C[C@H]1CCc2sc3ncnc(O[C@H]4CC[C@H](N5CCOCC5)CC4)c3c21 | enzyme activity, inhibitor | 10 µM | – | inhibition | -2%

Repeated from above:
SMILES | assay | conditions | how to read | measurement | result
C=CC(=O)Nc1cccc(-c2cnc3[nH]cc(C(=O)NC(C)(C)C)c3n2)c1 | enzyme activity, inhibitor | 0.1 µM | – | inhibition | 7%
COc1cc(Nc2nccc(-c3cnn4nc(OC)ccc34)n2)cc(C(F)(F)F)c1 | binding, competition with immobilised ligand | 1 µM | – | remaining binding | 100%
